Experimental data gathered from unrelated publications.
Every numbered part comes from another study and shows a few of its results, in no order.

Block 1
Target: Ras GTPase-activating protein-binding protein 1, RRM domain (G3BP1, Homo sapiens, UniProt Q13283)
Sequence of UniProt Q13283 (whole entry, looked up): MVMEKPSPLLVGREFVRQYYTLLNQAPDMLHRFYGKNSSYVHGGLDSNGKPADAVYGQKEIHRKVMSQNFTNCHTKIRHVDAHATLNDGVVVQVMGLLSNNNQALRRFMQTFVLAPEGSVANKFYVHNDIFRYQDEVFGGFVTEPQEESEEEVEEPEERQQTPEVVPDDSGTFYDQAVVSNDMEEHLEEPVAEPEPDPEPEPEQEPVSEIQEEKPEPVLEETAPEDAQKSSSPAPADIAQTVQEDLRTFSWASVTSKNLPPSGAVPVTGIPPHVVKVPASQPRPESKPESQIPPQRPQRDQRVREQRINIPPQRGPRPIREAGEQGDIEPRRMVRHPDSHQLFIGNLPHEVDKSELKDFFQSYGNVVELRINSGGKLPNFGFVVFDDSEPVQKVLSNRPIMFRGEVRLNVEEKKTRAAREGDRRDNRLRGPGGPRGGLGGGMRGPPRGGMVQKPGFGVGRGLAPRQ
Method: RNA Bind-n-Seq
Molecule type: RNA
Matrix: in vitro
Concentration: 1 µM
Setting: whole 134-nt RNA, ends assumed
Together with: 150 mM KCl
Reference: input library
Direction: higher = stronger binding
Quantity: log2 enrichment
Constant ends, left off below: GGGAGUUCUACAGUCCGACGAUC … UGGAAUUCUCGGGUGUCAAGG
UGGCCCUGGUGGCAUGCGGGGAGGAAGAGGUGGCCUCAUGGAUCGUGGUGGUCCCGGUGGAAGGUUCAGAGGUGGCCGUGGUGGAGACAG: 0.686
AGUCCUGUGCUACACAUCGUAUGUACCGAAUCAAAUUUUUAAACCCAAACCCCCAAAAAAGUAUUAUGUUACGCCGUUCGGAUCUGCACU: -0.59
CACAGACAACACGCACCCACACAGACACAGAGGGAAGGGGUUGGGAUGGGGACAGGGUGCACAGCAGGGCGGGGUAGGACCCCAGCCCCU: -0.0698
CCUGUGCUACACAUCGUAUGUACCGAAUCGGGGUUUUUUUGGGGUUUUUGGGGUUUGGGGAAAGUAUUAUGUUACGCCGUUCGGAUCUGC: 0.473
CCUGUGCUACACAUCGUAUGUACCGAAUCGGCCCCCCGGGCCCCCCGGGGCCCCCCGGGGAAAGUAUUAUGUUACGCCGUUCGGAUCUGC: -0.633
GUCCUGUGCUACACAUCGUAUGUACCGAAUCGGGUUUUUGGUUUUUGGGGUUUUUGGGAAAGUAUUAUGUUACGCCGUUCGGAUCUGCAC: -0.0301
CCUGUGCUACACAUCGUAUGUACCGAAUCGGGGAAAGGGGAAAAAAAGGGGUUUUUGGGGAAAGUAUUAUGUUACGCCGUUCGGAUCUGC: 0.717

Block 2
Target: Protein C-ets-1 (ETS1, Homo sapiens, UniProt P14921, residues 1-441, full length assumed)
Method: protein-binding microarray
Molecule type: double-stranded DNA, one strand shown
Matrix: in vitro
Concentration: not given
Setting: k-mer, scored over probes, only values ≥0.25
Direction: higher = stronger binding
Quantity: E-score
Construct (chain): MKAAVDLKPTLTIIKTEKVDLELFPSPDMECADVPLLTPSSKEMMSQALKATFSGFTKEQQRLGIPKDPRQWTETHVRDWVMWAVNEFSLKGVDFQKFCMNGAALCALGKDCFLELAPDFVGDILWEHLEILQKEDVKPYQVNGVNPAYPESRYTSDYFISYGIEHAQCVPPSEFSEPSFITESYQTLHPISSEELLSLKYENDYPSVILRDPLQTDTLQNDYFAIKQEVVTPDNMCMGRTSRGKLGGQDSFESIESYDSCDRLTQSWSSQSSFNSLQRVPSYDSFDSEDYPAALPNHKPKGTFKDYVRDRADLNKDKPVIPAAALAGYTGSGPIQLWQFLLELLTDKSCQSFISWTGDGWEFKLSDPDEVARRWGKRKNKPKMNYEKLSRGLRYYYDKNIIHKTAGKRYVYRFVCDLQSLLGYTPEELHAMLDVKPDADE
GTCGGAAA: 0.402
GCTTCCGA: 0.424
CCATCCGG: 0.475
CGGACTTC: 0.301
CGGATGTA: 0.483
CGGATTTC: 0.333
ATGCATCC: 0.356
CTATTTCC: 0.439
AGACCGGG: 0.259
ATCCTGGC: 0.331

Block 3
Target: Histone acetyltransferase KAT6A, winged helix 2, GST fusion (KAT6A, Homo sapiens, UniProt Q92794, residues 85-181)
Method: protein binding microarray
Molecule type: double-stranded DNA, one strand shown
Matrix: in vitro
Concentration: not given
Setting: 8-mer, flanks averaged, mean of 2 arrays, mostly near background
Reference: not given
Direction: higher = stronger binding
Quantity: E-score
Construct (chain): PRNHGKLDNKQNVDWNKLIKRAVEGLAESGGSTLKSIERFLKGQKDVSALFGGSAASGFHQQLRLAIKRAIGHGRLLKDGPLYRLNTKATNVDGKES
GCCCGAAC: 0.14
ATTATGCG: -0.0454
AATACAGA: 0.0389
AGCAGCCA: 0.0254
CTCTTCCC: -0.0999
GGTTCCCA: 0.0502
ATCCGCCG: 0.305

Further values, each from its own experiment
PhoQ, residues 284 288 289 292 302 303 SSCCRF — fold induction (PhoP, residues 12 14 15 18 19 NMSSL (Escherichia coli, UniProt P23836); Sort-seq, measured: YFP reporter; E. coli; PhoQ-PhoP variant library, together with: 10 µM Mg2+; reference: high Mg2+ state, higher = stronger signaling): 23.6

Repeated from above (block 1):
CCUGUGCUACACAUCGUAUGUACCGAAUCGGCCCCCCGGGCCCCCCGGGGCCCCCCGGGGAAAGUAUUAUGUUACGCCGUUCGGAUCUGC: -0.633
CCUGUGCUACACAUCGUAUGUACCGAAUCGGGGUUUUUUUGGGGUUUUUGGGGUUUGGGGAAAGUAUUAUGUUACGCCGUUCGGAUCUGC: 0.473
UGGCCCUGGUGGCAUGCGGGGAGGAAGAGGUGGCCUCAUGGAUCGUGGUGGUCCCGGUGGAAGGUUCAGAGGUGGCCGUGGUGGAGACAG: 0.686
